Measurements collected from several papers.
Each line is one published result; not all experiments were run side by side. Several values in a cell are separate wells, animals, samples, runs or records.
Target: Dual specificity protein kinase TTK (TTK, Homo sapiens, UniProt P33981)

Compound | test | system | conditions | how to read | quantity | result
CN1CC[C@@H](COc2cnc(C#N)cc2-c2ccn3nc(NC(=O)C4CC4)cc3c2)C1 | enzyme activity, inhibitor | – | 1 µM | – | inhibition | -17%
CNC(=O)C1CCN(c2cc(C)c(F)cc2NC(=O)c2ccc(-c3cc(O)ccc3C)c(C)c2)CC1 | binding, competition with immobilised ligand | – | 1 µM | – | remaining binding | 100%
COCC12C(=O)NC3C4(C(OC)CC1O)C1CC5(O)C(OC)C(O)C(OC(C)=O)(C1C5OC(=O)c1ccccc1)C3(O)C(OC)C24 (stereo not drawn) | kinase activity, inhibitor, ProQinase kinase profiling | – | 25 µM | reference: control | remaining activity | 97% and 119%
Cc1ccc(-c2c(/C=C(\C#N)C(=O)NC(C)C)n(CCCO)c3ncnc(N)c23)cc1 | cell-free assay, competition with immobilised ligand | – | 1 µM | – | remaining binding | 96%
C=CC(=O)Nc1cccc(-c2cnc3[nH]cc(C(=O)NC(C)(C)C)c3n2)c1 | enzyme activity, inhibitor | – | 0.1 µM | – | inhibition | 0%
COc1c(Cl)cccc1Nc1c(-c2ccncc2C#C[C@@]2(C)CCCN2C(=O)/C=C/CN(C)C)[nH]c2c1C(=O)NCC2 | binding, competition with immobilised ligand | – | 3 µM | – | remaining binding | 36%
Cc1cnc2nc1Nc1cccc(c1)COC/C=C/COCc1cc(ccc1OCCN1CCOCC1)N2 | binding, competition with immobilised ligand | – | 0.1 µM | – | remaining binding | 66%
Cc1cccc(O[C@H]2CCC[C@@H](C(C)CNCc3ccncc3)C2)c1 (relative stereo) | enzyme activity, inhibitor | – | 10 µM | – | inhibition | -15%
C=CC(=O)N1Cc2nc(-c3cc(-c4cc(Cl)cnc4Cl)c(F)cc3F)n(-c3ccncn3)c2C1 | cell-free assay, inhibitor | – | 1 µM | – | inhibition | -10.4%
NC(=O)[C@@H](O)C[C@H]1CCc2sc3ncnc(O[C@H]4CC[C@H](N5CCOCC5)CC4)c3c21 | enzyme activity, inhibitor | – | 10 µM | – | inhibition | 0%
Cc1ccc(C(=O)Nc2ccc(CN3CCN(C)CC3)c(C(F)(F)F)c2)cc1C#Cc1cnc2cccnn12 | target engagement, NanoBRET | human cells | – | – | Hill slope | 0.113
C=CC(=O)N1CCc2ccc(-n3c(=O)ccc4cnc5ccc(-c6cnn(C)c6)cc5c43)cc21 | KINOMEscan | – | 1 µM | reference: DMSO control | remaining binding | 80%
Nc1ncc2c(n1)-c1c([nH]c3ccc(C4=CCOCC4)cc13)CCC2 | binding, competition with immobilised ligand | – | 1 µM | – | remaining binding | 96%
COc1cc(Nc2nccc(-c3cnn4nc(OC)ccc34)n2)cc(C(F)(F)F)c1 | binding, competition with immobilised ligand | – | 1 µM | – | remaining binding | 81%
CCN1CCN(Cc2ccc(NC(=O)c3ccc(C)c(NC(=O)c4cncc(-c5cnn(C)c5)c4)c3)cc2C(F)(F)F)CC1 | binding, competition with immobilised ligand | – | 1 µM | – | remaining binding | 54%

A few entries again:
Compound | test | system | conditions | how to read | quantity | result
Cc1cnc2nc1Nc1cccc(c1)COC/C=C/COCc1cc(ccc1OCCN1CCOCC1)N2 | binding, competition with immobilised ligand | – | 0.1 µM | – | remaining binding | 66%
